Experimental data pooled from the literature.
Numbered parts are unrelated; each lists some results of a single study.

Study 1
Target: Protein C-ets-1 (ETS1, Homo sapiens, UniProt P14921, residues 1-441, K379A, full length assumed)
Method: protein-binding microarray
Molecule type: double-stranded DNA, one strand shown
Matrix: in vitro
Tested at: not given
Setting: k-mer, scored over probes, only values ≥0.25
Reading: higher = stronger binding
Target sequence (chain): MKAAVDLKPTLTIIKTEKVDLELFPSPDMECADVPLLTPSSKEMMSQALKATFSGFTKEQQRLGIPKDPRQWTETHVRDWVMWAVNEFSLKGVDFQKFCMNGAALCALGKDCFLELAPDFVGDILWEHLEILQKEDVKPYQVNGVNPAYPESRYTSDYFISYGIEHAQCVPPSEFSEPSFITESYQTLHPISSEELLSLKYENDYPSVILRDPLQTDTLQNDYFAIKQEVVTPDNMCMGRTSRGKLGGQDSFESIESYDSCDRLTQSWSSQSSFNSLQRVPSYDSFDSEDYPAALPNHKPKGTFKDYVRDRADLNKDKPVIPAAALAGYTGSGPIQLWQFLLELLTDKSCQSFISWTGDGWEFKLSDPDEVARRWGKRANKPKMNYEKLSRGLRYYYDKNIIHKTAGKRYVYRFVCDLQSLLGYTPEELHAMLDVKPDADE
With `ATTTCCCA` the E-score was 0.258.
With `CACCACTC` the E-score was 0.255.
The E-score of `GGTCCGGA` is reported as 0.282.
For `CCCCGGCG`, the E-score was 0.32.
`ATTAACCC` has an E-score of 0.253.
The E-score of `AACCGGTC` is reported as 0.369.

Study 2
Target: RING finger protein unkempt homolog, zinc fingers 1-6, GST-SBP tag (UNK, Homo sapiens, UniProt Q9C0B0, residues 30-357)
Method: RNA Bind-n-Seq
Molecule type: RNA
Matrix: in vitro
Tested at: not given
Setting: RNA with constant flanks, human and mouse sites, ends assumed
Relative to: input RNA pool
Reading: higher = stronger binding
Target sequence (chain): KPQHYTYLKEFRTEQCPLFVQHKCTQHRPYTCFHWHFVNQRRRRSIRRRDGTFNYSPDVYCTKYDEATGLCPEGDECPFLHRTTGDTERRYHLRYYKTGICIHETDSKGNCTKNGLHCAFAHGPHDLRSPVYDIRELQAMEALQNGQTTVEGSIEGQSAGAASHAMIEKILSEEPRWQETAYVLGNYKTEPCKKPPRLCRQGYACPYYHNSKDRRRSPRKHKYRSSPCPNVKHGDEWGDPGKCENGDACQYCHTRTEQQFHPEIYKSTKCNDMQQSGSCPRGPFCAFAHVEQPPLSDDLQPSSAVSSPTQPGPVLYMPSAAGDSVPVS
With `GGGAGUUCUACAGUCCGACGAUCCCAGAAUACACCAAAAAAAUAGAAAACCUCUGUGCUAUGGGUUUUGAUAGGAACGCAGUAAUAGUGGCCUUGUCUUCAAAAUCAUGGGAUGUAGAGACUGCAACAGAACUGCUUCUGAGUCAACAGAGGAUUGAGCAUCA` the bound/input enrichment was 0.499 ratio.
The bound/input enrichment of `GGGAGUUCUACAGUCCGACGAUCGUCUUUCAGCUUAAAGACCGUGGUCUGACCGAGUUCCCCUCAGAGUUGCAGAAGCUGACAAGCAAUCUUAGGACCAUCGAUUUAUCCAACAACAAGAUUGACAGCCUACCGCCUCUGAUACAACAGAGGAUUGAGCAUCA` is reported as 0.0734 ratio.
With `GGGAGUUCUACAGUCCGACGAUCGAGAACUUGCAUGAUGUUGCCUACAAGAAUGCCUUGGCUAAUCCUUUGUACUGUCCUGACUAUAGGAUGGGGAAGAUAACAUCAGAGGAAUUACAUUACUUUGUUCAGAACCACUUCACACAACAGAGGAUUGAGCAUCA` the bound/input enrichment was 0.163 ratio.
`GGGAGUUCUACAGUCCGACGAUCAUAAUAGCAAAACUUCAAGCCAAAGUUCAUGAAUCAAAUAAAUGCCUUGAAAAAACAAAAGAGACAAUUCAAGUACUUCAGGACAAAGUUGCUUUAGGAGCUAAGCCAUAUAAAGAAGAACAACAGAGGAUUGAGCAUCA` gave a bound/input enrichment of 0.472 ratio.
The bound/input enrichment of `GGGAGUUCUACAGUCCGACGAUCCACAUCAUAACCUUUUUAAGUGAAAUCACUUUAAUAUGGUUUUCUGAAGCCUCUCUAUCUGUUUACCAAAGUUUAUCUAACAGUCUGCAUAAGGUAAAGAAUAUACUGUGUCACAUUUUCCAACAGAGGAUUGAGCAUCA` is reported as 0.168 ratio.
`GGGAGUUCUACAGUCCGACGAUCGGCUUCAAAAUUGACACUAUGGGAACCUACCAUGGUAUGACACUGAAAUCUGUAACGGAGGGUGCAUCUGCCCGGAAGACUCAGACUCCUGCAGCCCAGCCAGUACCAAGACCAGUUUCUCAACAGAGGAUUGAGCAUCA` gave a bound/input enrichment of 0.126 ratio.
`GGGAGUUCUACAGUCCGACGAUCGCUUUUUAUCCUCAGUACCUCAGGCCCCCAUGUACUUGGUGGGACAGCAAACCCUUUCCUUGGUUUUGGCCUCCAGACUAAAGGGACAGGUCCCACCAACAGGUGCUCAGAGCCACCAAGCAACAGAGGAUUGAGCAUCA` gave a bound/input enrichment of 0.118 ratio.
With `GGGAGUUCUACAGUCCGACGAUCCGGUUUGCAGUCCCACCAGCACUCGGCAGUAAUCUGGCUGACAAUGUCAUGAUUACUGUAGAUAUUAUUCCUUCUGGUUGGAAUUCAACUGAUGGGAAAAAUGAUAAAGCUAAAAGUGCACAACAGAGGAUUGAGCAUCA` the bound/input enrichment was 0.0699 ratio.
With `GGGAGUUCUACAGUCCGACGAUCAAAGAAUAUGAAGUAAUGUAUUCUUCAUCUUGUGAAACCACAAGAAAUACUACAGGCAUUGAAGAAUCAACUGAUGGGAUGAUUUUAGGACCAGAAGAUCUGAGUUACCAAAUAUAUGAUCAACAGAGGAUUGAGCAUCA` the bound/input enrichment was 0.17 ratio.
`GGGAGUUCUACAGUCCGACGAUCUCCAGACAGGAAGAACAAAACCCAUUCUAGCACUUUCAUUUUUAAAAAAAAAAAGGUUUAUAGCUUUUUGUUCCGCCCUCCUCCUCCCCAUUUCACAAUGUCCAUUCCUUAAGAAGGGUUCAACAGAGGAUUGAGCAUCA` has a bound/input enrichment of 12.7 ratio.

Study 3
Target: Interferon regulatory factor 7, full length, phosphomimetic (IRF7, Homo sapiens, UniProt Q92985, residues 1-503, S471D/S472D/S475D/S476D/S477D/S483D/S484D/S487D)
Method: protein-binding microarray
Molecule type: double-stranded DNA, one strand shown
Matrix: in vitro
Tested at: 2200 nM top
Setting: 60-bp whole probe
Added: salmon DNA 0.4 mg/ml
Relative to: random background probes
Reading: higher = stronger binding
Shared flanks, not repeated: GCCTAGCAC … GTCTTGATTCGCTTGACGCTGCTG
Target sequence (chain): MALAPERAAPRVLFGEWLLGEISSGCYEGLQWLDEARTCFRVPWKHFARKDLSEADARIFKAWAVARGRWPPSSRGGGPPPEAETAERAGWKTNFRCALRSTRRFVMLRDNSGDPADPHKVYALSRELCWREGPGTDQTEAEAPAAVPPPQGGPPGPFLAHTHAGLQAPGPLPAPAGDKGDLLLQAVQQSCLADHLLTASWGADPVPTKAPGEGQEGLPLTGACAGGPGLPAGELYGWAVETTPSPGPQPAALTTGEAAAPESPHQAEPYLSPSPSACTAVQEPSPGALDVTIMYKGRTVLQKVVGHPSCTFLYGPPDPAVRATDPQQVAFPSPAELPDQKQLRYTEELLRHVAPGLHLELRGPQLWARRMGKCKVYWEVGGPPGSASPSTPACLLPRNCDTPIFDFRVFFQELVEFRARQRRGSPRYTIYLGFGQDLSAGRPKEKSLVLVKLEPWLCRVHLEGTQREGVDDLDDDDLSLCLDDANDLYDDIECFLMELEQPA
`TTAGATTTCAGTTCCGATTGGTGCTAG` — result for “fitted relative affinity”: 2.6 z-score.
`TCACGTGTTTTTCTCCTACTGTGCTAG` — result for “fitted relative affinity”: 2.33 z-score.
For `CAGCCAATCAGGACTCAGGGAGTGCTA`, “fitted relative affinity” read -0.883 z-score.
For `TCATTTTCAATTTTTGCACTGTGCTAG`, “fitted relative affinity” read 3.23 z-score.
`GTAGGTTTCGGGTATCGGTTAGTGCTA`: “fitted relative affinity” 6.05 z-score.

Further values, each from its own experiment
The fold induction of `PhoQ, residues 284 288 289 292 302 303 SSCLAV` is reported as 1.83 (PhoP, residues 12 14 15 18 19 HEGLL (Escherichia coli, UniProt P23836); Sort-seq, refers to: YFP reporter; E. coli; PhoQ-PhoP variant library, added: 10 µM Mg2+; relative to: high Mg2+ state, higher = stronger signaling).

Some of these lines once more (study 1):
The E-score of `AACCGGTC` is reported as 0.369.
`ATTAACCC` has an E-score of 0.253.
